Results of several laboratories.
Several values in a cell are separate wells, animals, samples, runs or records. ± gives the spread as reported.

Substance | organism | assay | system | setting | how to read | quantity | result
Cc1cc(/C=C/C#N)cc(C)c1Nc1nc(Nc2ccc(C#N)cc2)ncc1N | HIV-1 | viral replication, single-round infection | RT mutant Y181C | – | – | EC50 | 1.8 ± 0.2 nM
Cn1ccn2cc(C(=O)NCc3ccc(F)cc3F)c(=O)c(O)c2c1=O | human immunodeficiency virus 1 | single-round vector infection | integrase G140S/Q148H | – | – | EC50 | 276 ± 96.7 nM
C[N+]1=C2C(c3ccc(Cl)cc3)=[N+]([O-])c3ccccc3N2CCC1 | Bacteroides thetaiotaomicron | microbial growth | ATCC29148 | – | – | MIC | 4 µg/mL
CNCc1ccc2c(c1)N(C(=O)OCc1c(F)c(F)c(F)c(F)c1F)[C@H](CNC(=N)N)[C@H]2NC(=O)C(=O)Nc1ccc(Cl)c(F)c1 | HIV-1 AD8 Env E64G/I424T | viral infection | – | – | – | IC50 | 40 µM and < 75 µM
O=[N+]([O-])c1ccc(C2=[N+]([O-])c3ccccc3N3CCCN=C23)cc1 | Bacteroides thetaiotaomicron | microbial growth | ATCC29148 | – | – | MIC | 0.125 µg/mL
ivermectin | human adenovirus C5 | reporter gene | A549 | 10 µM, 72 h, added: digitoxin | relative to: DMSO control | viral replication | 63.3 ± 9.55%
COCC(C)N1CCn2cc(C(=O)NCc3ccc(F)cc3F)c(=O)c(O)c2C1=O (stereo not shown) | human immunodeficiency virus 1 | single-round vector infection | integrase G140S/Q148H | – | – | EC50 | 34.4 ± 1.7 nM
Cc1cc(C)cc(S(=O)(=O)c2c(C(=O)NC3CC4(C3)CN(Cc3n[nH]c(=O)[nH]3)C4)[nH]c3ccc(Cl)cc23)c1 | HIV-1 | viral replication | MT-4, Y188L mutant | – | – | EC50 | 560 ± 140 nM
COc1ccc2c(c1)OCCCC=CCCCCN(CC(O)C(Cc1ccccc1)NC(=O)OC1COC3OCCC13)S2(=O)=O (mixture of isomers) | HIV-1 | viral replication | PHA-stimulated PBMCs, HIV-1MDR/B X4 multidrug-resistant | – | – | IC50 | 0.089 ± 0.016 µM
CC(C)CC(C)N1CCn2cc(C(=O)NCc3ccc(F)cc3F)c(=O)c(O)c2C1=O (stereo not shown) | human immunodeficiency virus 1 | single-round vector infection | integrase G140S/Q148H | – | – | EC50 | 168 ± 17.1 nM
CNCc1ccc2c(c1)N(C(=O)OCc1ccccc1)[C@H](CNC(=N)N)[C@H]2NC(=O)C(=O)Nc1ccc(Cl)c(F)c1 | HIV-1 AD8 Env E64G/S375N | viral infection | – | – | – | IC50 | < 75 µM and 40 µM
CC[C@H](C)[C@H](NC(=O)[C@H](CCCCN)NC(=O)[C@H](Cc1ccc(O)cc1)NC(=O)[C@H](CCC(N)=O)NC(=O)[C@H](Cc1c[nH]cn1)NC(=O)[C@@H](NC(=O)[C@H](Cc1ccccc1)NC(=O)[C@H](Cc1c[nH]cn1)NC(=O)[C@@H](NC(=O)[C@@H](NC(=O)CNC(=O)[C@H](CCCNC(=N)N)NC(=O)[C@H](Cc1c[nH]c2ccccc12)NC(=O)[C@H](CC(C)C)NC(=O)[C@H](CO)NC(=O)[C@H](CCC(=O)O)NC(=O)[C@H](CC(C)C)NC(=O)[C@H](CCC(=O)O)NC(=O)[C@H](CC(N)=O)NC(=O)[C@H](CC(C)C)NC(=O)[C@H](CC(=O)O)NC(=O)[C@H](CO)NC(=O)[C@H](CCC(=O)O)NC(=O)[C@@H](NC(=O)[C@H](CC(C)C)NC(=O)[C@H](CCC(N)=O)NC(=O)[C@H](CCC(=O)O)NC(=O)[C@H](CCC(=O)O)NC(=O)[C@H](CC(C)C)NC(=O)[C@@H]1CCCN1C(=O)[C@@H](N)Cc1ccccc1)[C@@H](C)O)[C@@H](C)O)[C@@H](C)O)C(C)C)C(=O)N[C@@H](CCSC)C(=O)N1CCC[C@H]1C(=O)N[C@@H](Cc1ccccc1)C(=O)N[C@@H](CCCNC(=N)N)C(=O)N[C@@H](CCCCN)C(=O)N[C@@H](CC(C)C)C(=O)N[C@H](C(=O)N[C@@H](Cc1ccccc1)C(=O)N[C@@H](CCCCN)C(=O)N[C@@H](CCCNC(=N)N)C(=O)N[C@@H](CCCNC(=N)N)C(=O)N[C@@H](CCCCN)C(=O)N[C@@H](CC(N)=O)C(N)=O)C(C)C | Aspergillus flavus | ATP luminescence | ATCC 9170 | 48 h, 37 °C | – | MIC | > 50 µM
O=C(NCc1ccc(F)cc1F)c1cn2c(c(O)c1=O)C(=O)N(CCCCO)CC2 | human immunodeficiency virus 1 | single-round vector infection | integrase N155H | – | – | EC50 | 311 ± 29.8 nM
Cc1cc(/C=C/C#N)cc(C)c1-n1cnc2cnc(Nc3ccc(C#N)cc3)nc21 | HIV-1 | viral replication, single-round infection | RT mutant E138K/M184V | – | – | EC50 | 1.8 ± 0.8 nM
[O-][N+]1=C(Cc2ccccc2)C2=NCCCN2c2ccccc21 | Bacteroides thetaiotaomicron | microbial growth | ATCC29148 | – | – | MIC | 2 µg/mL
COCCCN1CCn2cc(C(=O)NCc3ccc(F)cc3F)c(=O)c(O)c2C1=O | human immunodeficiency virus 1 | single-round vector infection | integrase G140S/Q148H | – | – | EC50 | 191 ± 15.1 nM

For quick reference, copied from above:
Substance | organism | assay | system | setting | how to read | quantity | result
O=C(NCc1ccc(F)cc1F)c1cn2c(c(O)c1=O)C(=O)N(CCCCO)CC2 | human immunodeficiency virus 1 | single-round vector infection | integrase N155H | – | – | EC50 | 311 ± 29.8 nM
